Published values gathered from unrelated publications.
Each line is one published result; not all experiments were run side by side. Several values in a cell are separate wells, animals, samples, runs or records. ± marks the error that the study gave.

For `N#C[C@@H]1CC(F)(F)CN1C(=O)CNC(=O)c1ccnc2c(NC(=O)CCOCCOCCOCCOCCOCCOCCNC(=O)[C@H](CCCCNC(=O)CN3CCN(CC(=O)[O-])CCN(CC(=O)[O-])CCN(CC(=O)[O-])CC3)NC(=O)CCCc3ccc(I)cc3)cccc12.[177Lu+3]`, the tracer uptake was 0.32 %ID/g (U-87 MG tumour model; host not given, muscle; 24 h, tumour-bearing).
The body weight of `CCCCC(CSS(=O)(=O)O)NCC(C)C` (centres unmarked) is reported as 27.3 g and 25.5 g and 22.8 g (Schistosoma mansoni; perfusion day 35; infected Swiss Webster mice; 100 mg/kg).
`Cc1cc(=O)c2c(O)c3c(O[C@@H]4O[C@H](CO)[C@@H](O)[C@H](O)[C@H]4O)cc(O)cc3cc2o1` gave a cell viability of 74.3 ± 11.9% (HK-2 co-cultured with HepaRG; MTT; 266.67 µM, 24 h; relative to: untreated control).
Under “revertant fold increase”, `O=C1C2CC3CC1CC(C(=O)N1CCN(c4ccc([N+](=O)[O-])c5ncccc45)CC1)(C3)C2` is recorded as 1.1 (Salmonella typhimurium; Ames test; TA97a; 0.78 µg/well, with S9; relative to: vehicle).
`CCN(CC)CC#CCNc1ccnc2cc(Cl)ccc12` has a revertants of 84 revertants/well and 76 revertants/well (Salmonella typhimurium; mini-Ames test; TA102; 1000.0 µg/well, with rat liver S9).
With `N#C[C@@H]1CC(F)(F)CN1C(=O)CNC(=O)c1ccnc2c(NC(=O)[C@@H](N)CCCCNC(=O)CCOCCOCCOCCOCCOCCOCCNC(=O)CN3CCN(CC(=O)[O-])CCN(CC(=O)[O-])CCN(CC(=O)[O-])CC3)cccc12.[177Lu+3]` the tracer uptake was 0.21 %ID/g (U-87 MG tumour model; host not given, blood; 4 h, tumour-bearing).
`CCCC[C@@H](CSS(=O)(=O)O)NC(C)C` has a body weight of 32.4 g and 30.6 g and 33.8 g (Schistosoma mansoni; perfusion day 57; infected Swiss Webster mice; 100 mg/kg).
For `O=C1NC2(CC2)COc2ncc(F)cc2[C@H]2COCCN2c2ccn3ncc1c3n2`, “cells with chromosome gaps” read 0.7% (CHL cells; chromosomal aberration test; 20 µg/mL, 24 h, without S9 mix).
`N#C[C@@H]1CCCN1C(=O)CNC(=O)c1ccnc2ccc(OCCCN3CCN(C(=O)CCc4ccc5c(c4)CN4CCN6CC(=O)[O][68Ga-]([O]C(=O)C4)([O]5)[O]c4ccc(CCC(=O)N5CCN(CCCOc7ccc8nccc(C(=O)NCC(=O)N9CCC[C@H]9C#N)c8c7)CC5)cc4C6)CC3)cc12` gave a tracer uptake of 3.54 %ID/g (U-87 MG tumour model; host not given, blood; 2 h, tumour-bearing).
For `CC(C)OCCOCc1ccc(OCC(O)CN(N=O)C(C)C)cc1` (centres unmarked), “revertant fold increase” read 1.7 fold (Salmonella typhimurium; Ames test; TA100; 158 µg/plate, 30 % hamster S9; relative to: solvent control).
For `CNC(=O)C1CCCN(C(=O)C2CC3CCC2N3C(=O)[C@@H]2C[C@@H](O)CN2C(=O)NCc2cccc(Cl)c2F)C1` (mixture of isomers), the remaining activity was 102% (CYP3A4 (human); inhibitor, time-dependent inhibition; 5.56 µM, preincubated without NADPH, added: testosterone substrate; relative to: negative control).

For quick reference, copied from above:
`N#C[C@@H]1CCCN1C(=O)CNC(=O)c1ccnc2ccc(OCCCN3CCN(C(=O)CCc4ccc5c(c4)CN4CCN6CC(=O)[O][68Ga-]([O]C(=O)C4)([O]5)[O]c4ccc(CCC(=O)N5CCN(CCCOc7ccc8nccc(C(=O)NCC(=O)N9CCC[C@H]9C#N)c8c7)CC5)cc4C6)CC3)cc12` gave a tracer uptake of 3.54 %ID/g (U-87 MG tumour model; host not given, blood; 2 h, tumour-bearing).
